Results from different studies.
Compare with care: the assays were run in different laboratories. Values joined by “and” are separate records of one study, mostly repeats; a detail may differ. ± gives the spread as reported.
Voltage-dependent P/Q-type calcium channel subunit alpha-1A: Voltage-dependent P/Q-type calcium channel subunit alpha-1A (Homo sapiens, UniProt O00555)
UCHL1: Ubiquitin carboxyl-terminal hydrolase isozyme L1 (UCHL1, Homo sapiens, UniProt P09936)

CC[C@@H]1[C@H](F)C(=O)N[C@@H]1COc1nccc2cc(C(N)=O)c(OC)cc12 — inhibition (Leucine-rich repeat serine/threonine-protein kinase 2 (LRRK2, Homo sapiens, UniProt Q5S007); ATP-site probe binding, ActivX profiling; THP-1 cell lysate; 0.01 mM, Lys2 site): 18.4%
Cc1cc(-c2ccnc3[nH]cc(F)c23)cc(F)c1[C@@]1(O)[C@H](C)CN(C(=O)CN)C[C@@H]1C — inhibition (Phosphatidylinositol 3-kinase catalytic subunit type 3 (PIK3C3, Homo sapiens, UniProt Q8NEB9); ATP probe binding, KiNativ, item: ATP site; HEK293T cell lysate; 0.1 µM): -13.5%
O=C(Nc1cccc2c(=O)cc(-c3nnn[nH]3)oc12)c1ccc(OCCCCc2ccccc2)cc1 — inhibition (LRRC8A/LRRC8C (Homo sapiens, UniProt Q8IWT6+Q8TDW0, Y124F/Y126F); ion current, whole-cell patch clamp; HCT LRRC8-/- cells; 1 µM, +100 mV, Y124F/Y126F heteromers): -0.301% and 43% and 9.05% and -10.2% and -5.89% and -5.04%
CC(C)COc1ccc(CNC(=O)N(Cc2ccc(F)cc2)C2CCN(C)CC2)cc1 — inhibition (Voltage-dependent P/Q-type calcium channel subunit alpha-1A; ion current, antagonist; HEK293; 10 µM): 89%
N#CC(=Cc1ccccc1)C(=O)Nc1ccccc1-c1ccccc1 — labelling (UCHL1; covalent, intact protein LC-MS; 12.5 µM): 13.9%
Cc1cc(-c2ccnc3[nH]cc(F)c23)cc(F)c1[C@@]1(O)[C@H](C)CN(C2CCS(=O)(=O)CC2)C[C@@H]1C — inhibition (Serine/threonine-protein kinase 38-like (STK38L, Homo sapiens, UniProt Q9Y2H1); ATP probe binding, KiNativ, item: Lys2 site; HEK293T cell lysate; 0.1 µM): 0.3%
OO — inhibition (Histone acetyltransferase RTT109, with Vps75 (Saccharomyces cerevisiae, UniProt Q07794); enzyme activity, inhibitor; 250 µM, Rtt109-Vps75 complex, 1 mM DTT, with: [3H]acetyl-CoA): 3 ± 3%
COc1ccc(F)cc1C(=O)NCc1ccc(-c2nn([C@@H](C)C(F)(F)F)c(N)c2C(N)=O)cc1 — inhibition (Glycogen synthase kinase-3 beta (GSK3B, Homo sapiens, UniProt P49841); target engagement, competitive chemoproteomics; human PBMCs; 0.01 µM): 26.1%
Cc1ccc(NC(=O)C(C#N)=Cc2cccc(Cl)c2Cl)cc1 — labelling (UCHL1; covalent, intact protein LC-MS; 12.5 µM): 28.6%
CNCC[C@@H](Oc1ccccc1C)c1ccccc1 — inhibition (Voltage-dependent P/Q-type calcium channel subunit alpha-1A; ion current, antagonist; HEK293; 3 µM): 27%
Cn1cc(-c2ccc(-c3cncc(Cl)c3N3CCC4(CCNC4=O)CC3)cc2)cn1 — log2 fold change (COLO 205; gene expression, microarray, item: PLAC8 mRNA; concentration not given, 2 h; reference: untreated cells): -1.63
[2H]c1cc(C)c(NC(=O)c2cnc(Nc3cc(N4CCCCC4)nc(C)n3)s2)c(Cl)c1 — inhibition (Platelet-derived growth factor receptor alpha (PDGFRA, Homo sapiens, UniProt P16234, D842V); 0.01 µM): < 30%
COc1cc2c(cc1OC)C(=O)C(CC1CCN(Cc3ccccc3)CC1)C2 (stereo not shown) — inhibition (Voltage-dependent P/Q-type calcium channel subunit alpha-1A; ion current, antagonist; HEK293; 30 µM): 54%
